Measurements from different studies.
Lines come from different studies, so protocols differ. Values joined by “and” are separate records of one study, mostly repeats; a detail may differ. ± gives the spread as reported.
rep main protease: Replicase polyprotein 1ab, main protease (rep, Porcine epidemic diarrhea virus, UniProt P0C6Y4)
rep papain-like protease: Replicase polyprotein 1ab, papain-like protease (rep, Porcine epidemic diarrhea virus, UniProt P0C6Y4)
Sequence of UniProt P51531 (whole entry, looked up): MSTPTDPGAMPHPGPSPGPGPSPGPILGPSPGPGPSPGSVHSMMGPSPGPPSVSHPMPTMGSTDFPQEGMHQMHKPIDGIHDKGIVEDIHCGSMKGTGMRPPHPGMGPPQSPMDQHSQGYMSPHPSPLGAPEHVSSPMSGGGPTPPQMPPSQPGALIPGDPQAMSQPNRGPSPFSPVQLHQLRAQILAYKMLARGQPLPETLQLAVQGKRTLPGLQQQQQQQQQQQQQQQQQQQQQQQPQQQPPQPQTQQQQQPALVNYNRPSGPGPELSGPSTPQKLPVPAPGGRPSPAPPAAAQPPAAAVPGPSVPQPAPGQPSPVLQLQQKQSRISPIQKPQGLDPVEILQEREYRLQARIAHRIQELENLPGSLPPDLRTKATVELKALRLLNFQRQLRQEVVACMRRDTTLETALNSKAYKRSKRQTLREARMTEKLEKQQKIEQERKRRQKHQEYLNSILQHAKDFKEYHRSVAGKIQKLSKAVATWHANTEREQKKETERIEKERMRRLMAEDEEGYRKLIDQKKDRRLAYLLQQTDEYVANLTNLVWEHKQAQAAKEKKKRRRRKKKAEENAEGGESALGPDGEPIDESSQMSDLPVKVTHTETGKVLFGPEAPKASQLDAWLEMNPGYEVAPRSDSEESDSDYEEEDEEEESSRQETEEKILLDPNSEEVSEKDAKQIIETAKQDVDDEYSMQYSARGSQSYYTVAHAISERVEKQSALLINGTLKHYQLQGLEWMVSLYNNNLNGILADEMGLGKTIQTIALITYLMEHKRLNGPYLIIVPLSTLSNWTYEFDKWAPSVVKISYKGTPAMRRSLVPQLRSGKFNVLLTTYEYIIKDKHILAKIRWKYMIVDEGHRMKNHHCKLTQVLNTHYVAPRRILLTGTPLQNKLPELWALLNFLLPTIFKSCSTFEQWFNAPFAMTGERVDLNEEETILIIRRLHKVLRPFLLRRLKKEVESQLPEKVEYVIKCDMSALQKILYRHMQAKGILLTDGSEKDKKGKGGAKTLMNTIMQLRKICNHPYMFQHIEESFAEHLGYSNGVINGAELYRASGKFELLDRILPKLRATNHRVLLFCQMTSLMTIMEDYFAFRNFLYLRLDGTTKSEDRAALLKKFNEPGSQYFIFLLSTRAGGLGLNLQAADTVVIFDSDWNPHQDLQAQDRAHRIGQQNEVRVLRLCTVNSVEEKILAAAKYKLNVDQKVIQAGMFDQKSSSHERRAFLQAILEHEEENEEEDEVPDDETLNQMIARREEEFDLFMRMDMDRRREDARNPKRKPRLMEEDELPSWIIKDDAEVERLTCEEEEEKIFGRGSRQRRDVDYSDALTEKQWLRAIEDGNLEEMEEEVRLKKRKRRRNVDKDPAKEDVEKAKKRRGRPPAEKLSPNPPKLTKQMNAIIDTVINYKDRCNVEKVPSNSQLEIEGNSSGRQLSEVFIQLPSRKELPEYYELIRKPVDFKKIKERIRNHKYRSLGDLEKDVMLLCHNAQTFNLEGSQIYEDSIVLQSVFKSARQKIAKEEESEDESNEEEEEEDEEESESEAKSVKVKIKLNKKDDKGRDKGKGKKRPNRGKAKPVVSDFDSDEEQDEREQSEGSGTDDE
Sequence of UniProt Q09472 (whole entry, looked up): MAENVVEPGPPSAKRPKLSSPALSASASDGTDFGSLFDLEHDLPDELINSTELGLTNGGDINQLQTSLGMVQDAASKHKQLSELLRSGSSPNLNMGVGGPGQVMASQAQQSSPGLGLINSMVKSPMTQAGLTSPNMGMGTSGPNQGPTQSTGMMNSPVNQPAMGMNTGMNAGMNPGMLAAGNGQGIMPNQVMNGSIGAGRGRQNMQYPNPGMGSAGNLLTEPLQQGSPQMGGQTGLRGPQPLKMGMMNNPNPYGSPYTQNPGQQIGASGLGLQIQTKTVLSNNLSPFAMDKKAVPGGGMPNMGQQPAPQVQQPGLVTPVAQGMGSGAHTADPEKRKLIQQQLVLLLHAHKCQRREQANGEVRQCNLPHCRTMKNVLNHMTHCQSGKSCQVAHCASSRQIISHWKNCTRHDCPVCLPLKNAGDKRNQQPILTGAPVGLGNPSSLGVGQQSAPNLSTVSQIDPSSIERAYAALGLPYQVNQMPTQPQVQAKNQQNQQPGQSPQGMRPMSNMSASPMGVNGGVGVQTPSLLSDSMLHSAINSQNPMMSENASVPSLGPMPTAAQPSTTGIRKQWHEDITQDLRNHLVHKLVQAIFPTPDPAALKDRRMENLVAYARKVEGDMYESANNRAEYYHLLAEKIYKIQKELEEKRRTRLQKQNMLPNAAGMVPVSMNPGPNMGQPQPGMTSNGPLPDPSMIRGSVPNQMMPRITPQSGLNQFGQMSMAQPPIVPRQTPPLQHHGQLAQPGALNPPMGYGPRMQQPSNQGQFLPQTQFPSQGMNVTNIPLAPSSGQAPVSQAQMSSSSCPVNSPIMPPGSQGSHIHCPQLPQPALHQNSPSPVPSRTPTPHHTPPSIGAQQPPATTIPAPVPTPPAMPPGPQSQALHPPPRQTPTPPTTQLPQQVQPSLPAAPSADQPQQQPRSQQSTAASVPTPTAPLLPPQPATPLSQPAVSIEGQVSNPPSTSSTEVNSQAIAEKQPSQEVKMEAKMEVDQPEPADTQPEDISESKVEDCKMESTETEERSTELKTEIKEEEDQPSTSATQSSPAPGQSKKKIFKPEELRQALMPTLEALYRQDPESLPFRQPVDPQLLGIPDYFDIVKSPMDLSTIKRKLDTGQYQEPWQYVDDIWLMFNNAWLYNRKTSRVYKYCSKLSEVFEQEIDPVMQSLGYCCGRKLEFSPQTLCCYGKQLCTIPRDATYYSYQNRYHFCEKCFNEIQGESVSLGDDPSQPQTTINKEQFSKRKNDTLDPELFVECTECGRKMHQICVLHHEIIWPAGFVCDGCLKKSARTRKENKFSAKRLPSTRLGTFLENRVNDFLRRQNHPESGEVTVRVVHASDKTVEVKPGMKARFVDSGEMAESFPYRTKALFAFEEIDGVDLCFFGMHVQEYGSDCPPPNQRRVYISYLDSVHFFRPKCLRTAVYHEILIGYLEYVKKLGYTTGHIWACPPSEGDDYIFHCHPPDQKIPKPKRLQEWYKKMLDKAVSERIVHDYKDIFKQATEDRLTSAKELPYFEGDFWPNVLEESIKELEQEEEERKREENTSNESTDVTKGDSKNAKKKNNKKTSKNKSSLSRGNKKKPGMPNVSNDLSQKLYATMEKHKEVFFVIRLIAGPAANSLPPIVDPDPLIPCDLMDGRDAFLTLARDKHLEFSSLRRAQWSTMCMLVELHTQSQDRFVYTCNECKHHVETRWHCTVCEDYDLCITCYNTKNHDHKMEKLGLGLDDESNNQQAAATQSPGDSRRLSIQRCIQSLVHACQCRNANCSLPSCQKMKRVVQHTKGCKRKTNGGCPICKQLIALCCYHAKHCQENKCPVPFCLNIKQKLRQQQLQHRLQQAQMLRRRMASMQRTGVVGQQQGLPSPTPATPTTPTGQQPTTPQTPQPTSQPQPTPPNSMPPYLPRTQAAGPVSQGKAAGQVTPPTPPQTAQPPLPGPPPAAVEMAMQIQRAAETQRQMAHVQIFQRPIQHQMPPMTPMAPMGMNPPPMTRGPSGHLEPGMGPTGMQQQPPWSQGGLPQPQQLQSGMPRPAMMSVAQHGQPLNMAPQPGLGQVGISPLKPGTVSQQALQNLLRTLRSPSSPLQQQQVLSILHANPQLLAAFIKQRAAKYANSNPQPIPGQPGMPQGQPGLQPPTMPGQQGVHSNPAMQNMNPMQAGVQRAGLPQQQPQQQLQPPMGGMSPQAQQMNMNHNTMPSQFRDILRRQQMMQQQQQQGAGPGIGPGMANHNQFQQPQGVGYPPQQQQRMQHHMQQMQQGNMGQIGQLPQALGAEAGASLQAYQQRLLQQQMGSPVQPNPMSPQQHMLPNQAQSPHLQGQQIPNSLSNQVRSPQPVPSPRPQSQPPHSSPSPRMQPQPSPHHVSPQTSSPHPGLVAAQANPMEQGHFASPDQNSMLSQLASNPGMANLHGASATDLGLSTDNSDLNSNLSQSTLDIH
Sequence of UniProt P18089 (whole entry, looked up): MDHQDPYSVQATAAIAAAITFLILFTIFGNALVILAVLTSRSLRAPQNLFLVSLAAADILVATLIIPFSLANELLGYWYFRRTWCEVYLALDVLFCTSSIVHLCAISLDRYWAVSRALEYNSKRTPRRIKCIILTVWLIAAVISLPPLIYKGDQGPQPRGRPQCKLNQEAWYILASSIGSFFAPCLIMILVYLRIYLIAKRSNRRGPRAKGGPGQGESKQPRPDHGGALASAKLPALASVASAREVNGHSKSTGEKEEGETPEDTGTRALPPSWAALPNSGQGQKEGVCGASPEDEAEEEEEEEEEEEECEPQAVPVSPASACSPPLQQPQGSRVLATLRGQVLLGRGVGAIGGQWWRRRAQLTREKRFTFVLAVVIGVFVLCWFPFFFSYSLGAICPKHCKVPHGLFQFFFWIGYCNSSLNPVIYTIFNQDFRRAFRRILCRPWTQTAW
Sequence of UniProt Q8N884 (whole entry, looked up): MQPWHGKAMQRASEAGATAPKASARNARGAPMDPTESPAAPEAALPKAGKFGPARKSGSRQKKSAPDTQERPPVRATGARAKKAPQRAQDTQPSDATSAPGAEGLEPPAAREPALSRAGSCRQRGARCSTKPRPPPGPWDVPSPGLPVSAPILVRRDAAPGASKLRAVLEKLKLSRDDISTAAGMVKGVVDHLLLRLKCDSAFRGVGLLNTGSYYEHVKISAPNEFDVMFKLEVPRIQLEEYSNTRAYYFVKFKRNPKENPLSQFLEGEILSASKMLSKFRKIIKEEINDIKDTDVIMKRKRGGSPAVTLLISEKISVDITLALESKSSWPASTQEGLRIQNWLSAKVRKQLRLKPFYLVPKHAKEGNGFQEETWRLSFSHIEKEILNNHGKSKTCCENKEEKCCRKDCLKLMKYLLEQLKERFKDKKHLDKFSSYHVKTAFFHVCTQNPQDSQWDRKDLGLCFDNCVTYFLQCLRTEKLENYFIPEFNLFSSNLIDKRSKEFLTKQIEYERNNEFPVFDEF

COc1cc(-c2cc(C(C)=O)n3ccccc23)cc(OC)c1Cn1ccnc1  inhibition (SWI/SNF-related matrix-associated actin-dependent regulator of chromatin subfamily A member 2 (SMARCA2, Homo sapiens, UniProt P51531); 1 µM): -8.8%
COc1cc(CNC(=O)N2CCCC2)cc(Br)c1OC  inhibition (rep main protease; enzyme activity, inhibitor, FRET; 10 µM): < 0%
Cn1cc(-c2cnc3ccc(NC(=O)Nc4ccc(F)c(Br)c4)cc3n2)cn1  inhibition (Mitogen-activated protein kinase kinase kinase 5 (MAP3K5, Homo sapiens, UniProt Q99683); kinase binding, KiNativ profiling, measured: Lys2 peptide; PANC-1 lysate; 5 µM): 2.3%
CSc1ccccc1C(=O)NCc1cc(O)c(O)c(Br)c1  inhibition (rep papain-like protease; enzyme activity, FRET; concentration not given): inactive
Cc1cc(-c2ccnc3[nH]cc(F)c23)cc(F)c1[C@@]1(O)[C@H](C)CN(C2CCS(=O)(=O)CC2)C[C@@H]1C  inhibition (Serine/threonine-protein kinase 16 (STK16, Homo sapiens, UniProt O75716); ATP probe binding, KiNativ, measured: Lys2 site; HEK293T cell lysate; 1 µM): 16.3%
Cc1nn(-c2nc3c(F)cc(F)cc3s2)c(O)c1C(c1ccccc1C(=O)O)c1c(C)nn(-c2nc3c(F)cc(F)cc3s2)c1O  inhibition (Cyclic GMP-AMP synthase (CGAS, Homo sapiens, UniProt Q8N884); enzyme activity, inhibitor, pyrophosphatase-coupled; 25 µM, 1.5 h, with: HT-DNA): 54.5%
OO  inhibition (Histone acetyltransferase p300, BHC core (EP300, Homo sapiens, UniProt Q09472); enzyme activity; 1 mM, with: p300 BHC, with DTT): 12 ± 5%
COc1cc(-c2cc(C(C)=O)n3ccccc23)c(OC)cc1Cn1ccnc1  inhibition (SWI/SNF-related matrix-associated actin-dependent regulator of chromatin subfamily A member 2, isoform B (SMARCA2, Homo sapiens, UniProt P51531); 1 µM): -0.89%
COc1cc(C(=O)NS(=O)(=O)c2ccccc2C)ccc1Cc1cn(C)c2ccc(NC(=O)OC3CCCC3)cc12  inhibition (Volume-regulated anion channel subunit LRRC8C, part LRRC8A IL1 chimera (LRRC8C, Homo sapiens, UniProt Q8TDW0, Y126F); ion current, inhibitor, whole-cell patch clamp; HCT LRRC8-/- cells; 10 µM, +100 mV): 93.8% and 97.2% and 81% and 96.2% and 87.4%
CC[C@@H]1[C@H](F)C(=O)N[C@@H]1COc1nccc2cc(C(N)=O)c(OC)cc12  inhibition (Serine-protein kinase ATM (ATM, Homo sapiens, UniProt Q13315); ATP-site probe binding, ActivX profiling; THP-1 cell lysate; 0.01 mM): 12.7%
Cc1cnc2nc(SCC(=O)Nc3nccs3)n(CCc3ccccc3)c(=O)c2n1  inhibition (Phosphatidylinositol 4-phosphate 3-kinase C2 domain-containing subunit alpha (Pik3c2a, Mus musculus, UniProt Q61194); enzyme activity, inhibitor; concentration not given, with: ATP 10 µM): inactive
COc1ccc(C(=O)NCc2ccc(C)c(C)c2)cc1  inhibition (rep papain-like protease; enzyme activity, inhibitor, FRET; 10 µM): < 0%
O=C(Nc1cccc2c(=O)cc(-c3nnn[nH]3)oc12)c1ccc(OCCCCc2ccccc2)cc1  inhibition (Volume-regulated anion channel subunit LRRC8C, part LRRC8A IL1 chimera (LRRC8C, Homo sapiens, UniProt Q8TDW0, E6A); ion current, inhibitor, whole-cell patch clamp; HCT116 LRRC8 knockout, transfected; 3 µM, at -100 mV): 81.9%
CCN1CCN(Cc2ccc(NC(=O)c3ccc(C)c(Oc4ccnc5[nH]ccc45)c3)cc2C(F)(F)F)CC1  inhibition (Serine/threonine-protein kinase Nek9 (NEK9, Homo sapiens, UniProt Q8TD19); A-375; concentration not given): -14%
Ic1cccc2cnccc12  inhibition (imidazoline I2 receptor, central (rat); radioligand binding, inhibitor; 10 µM): 5%
CN1CCN(c2cc(-c3ccncc3)c(-c3ccc4ccccc4c3)nn2)CC1  inhibition (Vasoactive intestinal polypeptide receptor 2 (VIPR2, Homo sapiens, UniProt P41587); antagonist, FLIPR; 10 µM): 5.8%
[2H]c1cc(C)c(NC(=O)c2cnc(Nc3cc(N4CCCCC4)nc(C)n3)s2)c(Cl)c1  inhibition (Serine/threonine-protein kinase B-raf (BRAF, Homo sapiens, UniProt P15056, V600E); 0.01 µM): < 30%
COc1ccc(C(=O)Nc2ccc(N3CCC4(CC3)CCN(c3ccccn3)C4)cc2)cc1  inhibition (Alpha-synuclein, fibrils (SNCA, Homo sapiens, UniProt P37840); radioligand binding; 1 µM, 50 nM protein, with: [3H]BF2846 4 nM): 53%
NC/C(=C\F)COc1cccc(Cn2c(=S)[nH]c(=O)c3[nH]cnc32)c1  inhibition (hamster KATP channel; radioligand binding; 10 µM): < 50%
COc1cc(CNC(=O)c2cccc(C#N)c2)cc(Br)c1OC  inhibition (rep main protease; enzyme activity, inhibitor, FRET; 10 µM): < 0%
O=C(NO)c1ccc(CN2CCCCc3ccccc32)c(F)c1  inhibition (Alpha-2B adrenergic receptor (ADRA2B, Homo sapiens, UniProt P18089); radioligand binding, PDSP radioligand binding; 10 µM): 33.2%
Cc1cc2c(cc1N1C(=O)c3cccc4c(CCCO)ccc(c34)C1=O)n(C)c(=O)n2C (racemic)  inhibition (Nucleosome-remodeling factor subunit BPTF (BPTF, Homo sapiens, UniProt Q12830); binding, BROMOscan binding; 100 nM): 72%
COc1ccc(C(=O)NCc2cc(Br)c(OC)c(OC)c2)cc1OC  inhibition (rep main protease; enzyme activity, inhibitor, FRET; 10 µM): < 0%

A few entries again:
Ic1cccc2cnccc12  inhibition (imidazoline I2 receptor, central (rat); radioligand binding, inhibitor; 10 µM): 5%
CC[C@@H]1[C@H](F)C(=O)N[C@@H]1COc1nccc2cc(C(N)=O)c(OC)cc12  inhibition (Serine-protein kinase ATM (ATM, Homo sapiens, UniProt Q13315); ATP-site probe binding, ActivX profiling; THP-1 cell lysate; 0.01 mM): 12.7%
Cc1cc2c(cc1N1C(=O)c3cccc4c(CCCO)ccc(c34)C1=O)n(C)c(=O)n2C (racemic)  inhibition (Nucleosome-remodeling factor subunit BPTF (BPTF, Homo sapiens, UniProt Q12830); binding, BROMOscan binding; 100 nM): 72%
